Measured values from different studies.
Each line is one published result; not all experiments were run side by side. Values joined by “and” are separate records of one study, mostly repeats; a detail may differ. Numbers after ± are the reported error.

| Structure (SMILES) | cell line | assay | test system | conditions | how to read | endpoint | value |
| --- | --- | --- | --- | --- | --- | --- | --- |
| Cc1cc2c(c(O)c1O)C(=O)c1c(O)cc(O)cc1C2=O | HepaRG co-cultured with HK-2 | MTT | – | 266.67 µM, 48 h | relative to: untreated control | cell viability | 64 ± 14.2% |
| C=C(C)[C@H]1Cc2c(ccc3c2O[C@@H]2COc4cc(OC)c(OC)cc4[C@@H]2C3=O)O1 | THLE-2 transduced with Ad-CYP2D6 | metabolism-induced cytotoxicity | – | 48 h, 3D Matrigel spots | – | IC50 | 0.4 ± 0.1 µM |
| N#C[C@H](C[C@@H]1CCCNC1=O)NC(=O)[C@H](CC1CC1)NC(=O)c1cc2cccc(Cl)c2[nH]1 | cryopreserved human hepatocytes | mRNA induction, inducer, item: CYP3A4 | – | 72 h | – | EC50 | 2.1 µM |
| O=S(=O)(O)C(F)(F)C(F)(F)C(F)(F)C(F)(F)F | hTERT-RPTEC-OAT1 | LDH release | culture medium | concentration not given, 24 h, 96-well plate | – | LDH activity in medium | 4.91 mU/mL |
| CC[C@H](C)[C@H](NC(=O)CN)C(=O)N[C@@H](C)C(=O)N[C@@H](CCCCN)C(=O)N[C@@H](Cc1ccccc1)C(=O)N[C@H](C(=O)N[C@@H](CCCCN)C(=O)N[C@@H](CCCCN)C(=O)N[C@H](C(=O)N[C@@H](C)C(=O)N[C@@H](CCCCN)C(=O)N[C@@H](C)C(=O)N[C@@H](CC(C)C)C(=O)N[C@@H](CCCNC(=N)N)C(N)=O)[C@@H](C)CC)[C@@H](C)CC | sheep red blood cells | – | – | 256 µM, 1 h, 37 °C | relative to: Triton X-100 | hemolysis | 20% |
| CN(CC[C@H](Oc1cccc2ccccc12)c1cccs1)N=O | TK6 expressing CYP2B6 | micronucleus induction | – | 24 h, without S9 | – | LOAEL | < 1 µM |
| Oc1ccc(C(c2ccc(O)cc2)(C(F)(F)F)C(F)(F)F)cc1 | HepG2 spheroids, dissociated | annexin V-FITC/PI flow cytometry | – | 0.1 µM, 24 h | – | early apoptotic cells | 17.4 ± 7.94% |
| CC[C@H](C)[C@H](NC(=O)[C@H](CC(C)C)NC(=O)[C@@H](NC(=O)[C@H](CCCCN)NC(=O)[C@H](CCCNC(=N)N)NC(=O)[C@H](CCCCN)NC(=O)[C@H](CC(C)C)NC(=O)[C@H](Cc1ccc(O)cc1)NC(=O)[C@@H](NC(=O)[C@@H](NC(=O)[C@H](Cc1ccccc1)NC(=O)CN)C(C)C)C(C)C)[C@@H](C)O)C(=O)N[C@@H](CCCNC(=N)N)C(=O)N[C@@H](CC(C)C)C(=O)N[C@@H](CC(C)C)C(=O)N[C@@H](Cc1ccccc1)C(=O)N[C@H](C(=O)N[C@@H](CC(N)=O)C(=O)N[C@@H](CCCCN)C(=O)N[C@@H](CCCCN)C(=O)N[C@H](C(=O)N[C@H](C(=O)N[C@H](C(=O)N[C@@H](CCC(=O)O)C(=O)N[C@@H](CCCCN)C(=O)N[C@@H](CC(C)C)C(=O)N[C@@H](CCCNC(=N)N)C(=O)N[C@@H](CS)C(=O)N[C@H](C(=O)N[C@@H](CCCNC(=N)N)C(=O)N1CCC[C@H]1C(=O)N[C@@H](CO)C(=O)N[C@@H](CCCNC(=N)N)C(=O)N1CCC[C@H]1C(=O)N1CCC[C@H]1C(=O)N[C@@H](CCCNC(=N)N)C(=O)NCC(=O)N[C@@H](Cc1ccccc1)C(=O)O)C(C)C)[C@@H](C)CC)[C@@H](C)O)[C@@H](C)O)[C@@H](C)O | HaCaT | cell viability, MTT | – | – | – | CC50 | 92.7 µM |
| O=C(O)C(F)(F)C(F)(F)C(F)(F)C(F)(F)C(F)(F)F | hTERT-RPTEC-OAT1 | – | – | concentration not given, Transwell, apical-to-basolateral addition | – | LDH release | 20.2 mU/mL and 17.5 mU/mL and 12.7 mU/mL and 14.8 mU/mL |
| CC(C)(c1ccc(O)cc1)c1ccc(O)cc1 | HepG2 spheroids, dissociated | annexin V-FITC/PI flow cytometry | – | 0.1 µM, 24 h | – | early apoptotic cells | 2.71 ± 1.2% |
| O=C(O)C(F)(F)C(F)(F)C(F)(F)C(F)(F)F | hTERT-RPTEC-OAT1 | – | – | concentration not given, Transwell, apical-to-basolateral addition | – | LDH release | 15.7 mU/mL and 12.5 mU/mL and 17.1 mU/mL and 15.8 mU/mL |
| O=c1ccc2ccccc2o1 | HepaRG 3D spheroids | mitochondrial mass | – | 72 h, high-content imaging | – | point of departure | 549 µM |
| Oc1ccc(C2(c3ccc(O)cc3)c3ccccc3-c3ccccc32)cc1 | HepG2 spheroids | annexin V-FITC/PI flow cytometry | – | 0.10 µM, 96 h | – | necrotic cells | 46 ± 26.5% |
| CC(C)C[C@H](NC(=O)[C@@H](NC(=O)[C@H](CCCNC(=N)N)NC(=O)[C@H](CCCCN)NC(=O)[C@H](CCCCN)NC(=O)CNC(=O)CNC(=O)CNC(=O)c1ccc2c(c1)C(=O)OC21c2ccc(O)cc2Oc2cc(O)ccc21)[C@@H](C)O)C(=O)N[C@@H](CCCNC(=N)N)C(=O)N[C@@H](CCCCN)C(=O)N[C@@H](CC(N)=O)C(=O)N[C@@H](CC(=O)O)C(=O)N[C@@H](CCCNC(=N)N)C(=O)N[C@@H](CCCCN)C(=O)N[C@@H](CCCCN)C(=O)N[C@@H](CCCNC(=N)N)C(=O)N[C@@H](CS)C(N)=O | hCMEC/D3 monolayers | BBB permeability, Transwell, item: CF-labelled compound | EGM-2 medium | concentration not given, 2 h, apical to basal | relative to: fluorescence added apically | transport ratio | 5.3% |
| COc1ccc2c(c1OC)C(=O)c1c(cc(C)c(O)c1OC)C2=O | HepaRG co-cultured with HK-2 | MTT | – | 16.67 µM, 48 h | relative to: untreated control | cell viability | 87.7 ± 4.5% |
| CC1=C(O)C(=O)C=C2C1=CC=C1[C@@]2(C)CC[C@@]2(C)[C@@H]3C[C@](C)(C(=O)O)CC[C@]3(C)CC[C@]12C | COS-7 | – | – | 3 µM, 24 h, 0.1% DMSO, unit not given | relative to: vehicle control | apoptotic cells | 1.03 ± 0.27 |
| O=C(O)C(F)(F)C(F)(F)C(F)(F)C(F)(F)C(F)(F)C(F)(F)C(F)(F)C(F)(F)C(F)(F)F | hTERT-RPTEC-OAT1 | – | – | concentration not given, Transwell, basolateral-to-apical addition | – | LDH release | 9.86 mU/mL and 12.1 mU/mL and 12.3 mU/mL and 15 mU/mL |
| CC(C)c1c(C(=O)Nc2ccccc2)c(-c2ccccc2)c(-c2ccc(F)cc2)n1CC[C@@H](O)C[C@@H](O)CC(=O)O | MCF7 AREc32 cells | cell confluency, IncuCyte imaging | – | 24 h, nominal concentration | – | IC10 | 35.5 µM |
| O=C(Nc1cccc(OS(=O)(=O)c2ccc(Cl)cc2)c1)c1ccc2ncccc2c1 | HEK-293T | MTT | – | up to 100 µM | – | viability | not toxic |
| CC(=O)OC[C@H]1O[C@@H](Oc2cc(O)cc3cc4oc(C)cc(=O)c4c(O)c23)[C@H](O)[C@@H](O)[C@@H]1O | HK-2 co-cultured with HepaRG | MTT | – | 133.33 µM, 24 h | relative to: untreated control | cell viability | 129 ± 7.26% |
| CCN(CC)CCCC[C@H](NC(=O)[C@H](CC(C)C)NC(=O)[C@H](C)NC(=O)[C@H](Cc1ccccc1)NC(=O)c1ccc(C(C)(C)C)cc1)C(=O)N[C@@H](CO)C(=O)OC | HEK-293T | CellTiter-Glo | – | up to 100 µM, 48 h | – | cytotoxicity | not toxic |
| CC[C@H](C)[C@H](N)C(=O)N[C@H](C(=O)N[C@@H](Cc1ccccc1)C(=O)N[C@@H](Cc1c[nH]cn1)C(=O)N[C@H](C(=O)N[C@@H](CCCCN)C(=O)N[C@@H](CCCCN)C(=O)N[C@@H](CCCCN)C(=O)N[C@@H](CC(C)C)C(=O)N[C@@H](CO)C(=O)N[C@H](C(=O)N[C@@H](CS)C(=O)N[C@@H](C)C(=O)N[C@@H](CC(N)=O)C(=O)N1CCC[C@H]1C(=O)N[C@@H](CCCCN)C(=O)N[C@@H](CCC(N)=O)C(=O)N[C@H](C(=O)N[C@@H](Cc1c[nH]c2ccccc12)C(=O)N[C@H](C(=O)N[C@@H](CCCCN)C(=O)N[C@@H](Cc1ccc(O)cc1)C(=O)N[C@H](C(=O)N[C@H](C(=O)N[C@@H](CCCNC(=N)N)C(=O)N[C@@H](CC(C)C)C(=O)N[C@@H](CC(C)C)C(=O)N[C@@H](CO)C(=O)N[C@@H](CCCCN)C(=O)N[C@@H](CCCCN)C(=O)N[C@H](C(=O)N[C@@H](CCCCN)C(=O)O)C(C)C)C(C)C)[C@@H](C)CC)C(C)C)[C@@H](C)O)C(C)C)[C@@H](C)O)[C@@H](C)CC | HaCaT | cell viability, MTT | – | 24 h | – | CC50 | 46.3 µM |
| CC[C@H](C)[C@H](NC(=O)[C@H](CCCCN)NC(=O)[C@@H]1CCCN1C(=O)[C@H](CCCNC(=N)N)NC(=O)[C@H](Cc1ccc(O)cc1)NC(=O)[C@H](CCCNC(=N)N)NC(=O)[C@H](CCCNC(=N)N)NC(=O)[C@@H](NC(=O)[C@H](CCCNC(=N)N)NC(=O)[C@H](CCCNC(=N)N)NC(=O)[C@H](CC(C)C)NC(=O)[C@H](Cc1ccccc1)NC(=O)[C@H](CCCNC(=N)N)NC(=O)[C@H](CO)NC(=O)[C@H](Cc1ccccc1)NC(=O)[C@@H](N)CCCNC(=N)N)C(C)C)C(=O)N[C@@H](CO)C(=O)N[C@@H](Cc1ccccc1)C(=O)N[C@@H](CC(N)=O)C(=O)N[C@@H](CC(C)C)C(=O)N[C@@H](CCC(=O)O)C(=O)N1CCC[C@H]1C(=O)N[C@@H](Cc1ccccc1)C(=O)N[C@@H](Cc1ccccc1)C(=O)N[C@@H](CCCCN)C(=O)N[C@@H](Cc1ccccc1)C(=O)O | rat erythrocytes | haemolysis | – | 1 h, 37 °C, 2% erythrocytes in PBS | – | HC50 | 2.98 log10 µg/mL |
| COc1cc2c(OCCCC#N)c3c(c(-c4ccc5c(c4)OCO5)c2cc1OC)C(=O)OC3 | HEK293 | – | complete medium | concentration not given, 72 h | relative to: diphyllin | cytotoxicity fold increase | 5 fold |
| O=C1c2ccccc2C(=O)c2ccccc21 | HepaRG co-cultured with HK-2 | MTT | – | 133.33 µM, 48 h | relative to: untreated control | cell viability | 34 ± 7.97% |
| CC[C@H](C)[C@H](NC(=O)[C@@H](NC(=O)[C@H](Cc1ccccc1)NC(=O)CNC(=O)[C@H](CCC(N)=O)NC(=O)[C@H](CCCCN)NC(=O)[C@H](C)N)C(C)C)C(=O)N[C@@H](Cc1ccc(O)cc1)C(=O)N[C@@H](CCCNC(=N)N)C(=O)N[C@H](C(=O)N[C@@H](CCCNC(=N)N)C(=O)N[C@H](C(=O)N[C@@H](CCCNC(=N)N)C(=O)N[C@@H](CCCNC(=N)N)C(=O)NCC(=O)N[C@@H](CC(N)=O)C(=O)N[C@@H](CCCNC(=N)N)C(=O)N[C@@H](CCCCN)C(N)=O)C(C)C)C(C)C | rat erythrocytes | – | – | 200 µM, 60 min, 37 °C | – | hemolysis | 0.9 ± 0.2% |
| CC[C@H](C)[C@H](NC(=O)[C@H](CCCCN)NC(=O)[C@H](CCC(N)=O)NC(=O)[C@@H](NC(=O)[C@@H](NC(=O)[C@H](CCCNC(=N)N)NC(=O)[C@H](CCCCN)NC(=O)[C@H](Cc1ccccc1)NC(=O)CN)[C@@H](C)CC)C(C)C)C(=O)N[C@@H](CCCNC(=N)N)C(=O)N[C@@H](CC(=O)O)C(=O)N[C@@H](Cc1ccccc1)C(=O)N[C@@H](CC(C)C)C(=O)N[C@@H](CCCNC(=N)N)C(=O)N[C@@H](CC(N)=O)C(=O)N[C@@H](CC(C)C)C(=O)N[C@H](C(N)=O)C(C)C | HaCaT | cell viability, MTS | – | 1 h, 37 °C, 10% FBS | – | LC50 | 40 µM |
